Measured values from different studies.
Parts stem from different laboratories: compare values within a part only. Values joined by “and” are separate records of one study, mostly repeats; a detail may differ.
Chain of UniProt Q13557 (whole entry, looked up): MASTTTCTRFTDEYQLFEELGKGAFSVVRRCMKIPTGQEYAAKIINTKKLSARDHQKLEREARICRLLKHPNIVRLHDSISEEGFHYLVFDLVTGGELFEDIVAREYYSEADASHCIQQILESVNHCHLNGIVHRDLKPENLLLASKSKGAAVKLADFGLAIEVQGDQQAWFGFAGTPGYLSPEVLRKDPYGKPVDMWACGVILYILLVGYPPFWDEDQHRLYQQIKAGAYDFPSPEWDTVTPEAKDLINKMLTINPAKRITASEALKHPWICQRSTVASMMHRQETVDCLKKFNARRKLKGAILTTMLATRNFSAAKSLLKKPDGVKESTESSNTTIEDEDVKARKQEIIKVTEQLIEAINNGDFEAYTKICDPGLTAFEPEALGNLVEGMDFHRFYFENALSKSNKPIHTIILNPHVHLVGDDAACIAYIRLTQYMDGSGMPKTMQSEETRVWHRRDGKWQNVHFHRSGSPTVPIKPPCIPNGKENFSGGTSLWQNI
Chain of UniProt O94804 (whole entry, looked up): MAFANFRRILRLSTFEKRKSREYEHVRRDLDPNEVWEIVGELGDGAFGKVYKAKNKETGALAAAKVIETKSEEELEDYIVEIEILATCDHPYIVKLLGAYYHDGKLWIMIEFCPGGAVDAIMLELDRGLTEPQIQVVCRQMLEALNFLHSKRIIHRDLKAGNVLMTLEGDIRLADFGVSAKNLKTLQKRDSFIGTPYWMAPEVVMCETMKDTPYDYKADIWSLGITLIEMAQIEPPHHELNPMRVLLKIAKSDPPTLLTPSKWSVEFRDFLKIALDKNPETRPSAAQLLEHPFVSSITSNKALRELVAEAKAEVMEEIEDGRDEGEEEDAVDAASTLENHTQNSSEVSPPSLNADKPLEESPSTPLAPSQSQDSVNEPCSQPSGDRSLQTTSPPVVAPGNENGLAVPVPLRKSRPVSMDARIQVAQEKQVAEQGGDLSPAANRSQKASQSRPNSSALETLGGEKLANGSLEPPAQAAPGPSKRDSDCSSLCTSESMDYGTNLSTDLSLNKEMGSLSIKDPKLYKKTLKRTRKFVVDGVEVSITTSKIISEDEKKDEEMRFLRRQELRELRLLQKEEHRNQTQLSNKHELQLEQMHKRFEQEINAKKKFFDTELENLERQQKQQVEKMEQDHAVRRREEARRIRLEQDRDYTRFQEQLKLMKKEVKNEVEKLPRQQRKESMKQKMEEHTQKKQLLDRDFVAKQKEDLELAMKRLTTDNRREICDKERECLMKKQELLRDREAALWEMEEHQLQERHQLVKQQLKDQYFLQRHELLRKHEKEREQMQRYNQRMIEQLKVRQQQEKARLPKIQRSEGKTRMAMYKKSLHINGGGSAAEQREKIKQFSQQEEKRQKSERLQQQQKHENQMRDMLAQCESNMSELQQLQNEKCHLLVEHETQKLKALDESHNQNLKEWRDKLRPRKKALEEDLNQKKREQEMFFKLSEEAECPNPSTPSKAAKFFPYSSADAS
Chain of UniProt P33981 (whole entry, looked up): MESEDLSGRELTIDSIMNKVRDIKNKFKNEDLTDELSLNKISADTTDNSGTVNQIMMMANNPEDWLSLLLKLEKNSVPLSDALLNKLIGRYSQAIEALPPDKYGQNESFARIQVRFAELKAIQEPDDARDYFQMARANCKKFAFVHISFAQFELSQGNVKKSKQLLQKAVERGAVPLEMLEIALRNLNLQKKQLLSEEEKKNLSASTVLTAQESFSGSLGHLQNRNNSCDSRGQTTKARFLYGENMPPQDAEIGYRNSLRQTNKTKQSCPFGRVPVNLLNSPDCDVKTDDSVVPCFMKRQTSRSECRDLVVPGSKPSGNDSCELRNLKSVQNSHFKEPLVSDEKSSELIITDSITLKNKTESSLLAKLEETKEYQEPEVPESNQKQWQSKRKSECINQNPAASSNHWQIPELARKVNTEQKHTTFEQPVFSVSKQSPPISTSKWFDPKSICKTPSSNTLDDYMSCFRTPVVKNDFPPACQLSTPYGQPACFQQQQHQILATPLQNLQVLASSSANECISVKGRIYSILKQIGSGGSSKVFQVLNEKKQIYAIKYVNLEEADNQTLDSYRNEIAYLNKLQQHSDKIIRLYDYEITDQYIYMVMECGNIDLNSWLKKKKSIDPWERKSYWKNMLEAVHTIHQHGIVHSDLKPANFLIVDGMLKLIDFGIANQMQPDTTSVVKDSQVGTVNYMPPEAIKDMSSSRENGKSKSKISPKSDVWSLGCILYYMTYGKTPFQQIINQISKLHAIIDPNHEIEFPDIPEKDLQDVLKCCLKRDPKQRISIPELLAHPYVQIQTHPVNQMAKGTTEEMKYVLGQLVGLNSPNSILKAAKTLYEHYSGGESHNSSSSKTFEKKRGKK
Chain of UniProt P19784 (whole entry, looked up): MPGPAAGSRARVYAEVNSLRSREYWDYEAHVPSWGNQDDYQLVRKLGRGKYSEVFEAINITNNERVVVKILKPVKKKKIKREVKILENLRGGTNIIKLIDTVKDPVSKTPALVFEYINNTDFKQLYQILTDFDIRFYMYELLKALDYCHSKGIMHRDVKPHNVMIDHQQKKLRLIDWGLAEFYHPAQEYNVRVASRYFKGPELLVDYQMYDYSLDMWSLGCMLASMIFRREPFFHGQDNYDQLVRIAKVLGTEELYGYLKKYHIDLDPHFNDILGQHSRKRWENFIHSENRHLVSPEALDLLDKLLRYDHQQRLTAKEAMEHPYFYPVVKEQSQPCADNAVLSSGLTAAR
Chain of UniProt P00519 (whole entry, unmodified, looked up): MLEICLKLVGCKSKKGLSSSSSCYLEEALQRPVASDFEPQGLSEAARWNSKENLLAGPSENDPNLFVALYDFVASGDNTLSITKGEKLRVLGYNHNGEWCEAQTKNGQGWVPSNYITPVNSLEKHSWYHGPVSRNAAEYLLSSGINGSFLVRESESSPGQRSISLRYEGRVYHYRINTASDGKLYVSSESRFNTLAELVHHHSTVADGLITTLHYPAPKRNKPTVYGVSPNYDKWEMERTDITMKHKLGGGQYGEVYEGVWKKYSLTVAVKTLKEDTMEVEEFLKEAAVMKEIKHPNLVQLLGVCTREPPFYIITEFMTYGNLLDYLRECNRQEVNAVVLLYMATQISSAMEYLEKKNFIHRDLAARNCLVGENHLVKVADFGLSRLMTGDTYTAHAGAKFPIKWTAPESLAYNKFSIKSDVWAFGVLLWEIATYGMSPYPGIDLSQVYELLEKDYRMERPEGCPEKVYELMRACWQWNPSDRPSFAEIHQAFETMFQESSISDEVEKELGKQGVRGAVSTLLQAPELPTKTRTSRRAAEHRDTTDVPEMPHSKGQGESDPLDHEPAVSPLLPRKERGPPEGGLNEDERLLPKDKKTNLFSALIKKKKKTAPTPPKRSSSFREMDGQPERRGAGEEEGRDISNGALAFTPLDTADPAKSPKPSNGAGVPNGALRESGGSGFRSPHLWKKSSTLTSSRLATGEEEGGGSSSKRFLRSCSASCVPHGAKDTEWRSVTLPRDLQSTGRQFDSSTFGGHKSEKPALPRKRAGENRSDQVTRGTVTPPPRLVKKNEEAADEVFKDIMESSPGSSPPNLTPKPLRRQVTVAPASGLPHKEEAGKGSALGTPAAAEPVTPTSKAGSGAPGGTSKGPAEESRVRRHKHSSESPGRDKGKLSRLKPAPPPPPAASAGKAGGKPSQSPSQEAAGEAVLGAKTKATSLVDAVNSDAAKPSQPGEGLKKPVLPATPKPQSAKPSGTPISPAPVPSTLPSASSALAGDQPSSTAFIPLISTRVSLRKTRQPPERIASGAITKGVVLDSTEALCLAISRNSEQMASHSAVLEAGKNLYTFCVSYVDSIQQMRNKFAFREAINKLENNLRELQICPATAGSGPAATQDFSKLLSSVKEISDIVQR
Chain of UniProt P51955 (whole entry, looked up): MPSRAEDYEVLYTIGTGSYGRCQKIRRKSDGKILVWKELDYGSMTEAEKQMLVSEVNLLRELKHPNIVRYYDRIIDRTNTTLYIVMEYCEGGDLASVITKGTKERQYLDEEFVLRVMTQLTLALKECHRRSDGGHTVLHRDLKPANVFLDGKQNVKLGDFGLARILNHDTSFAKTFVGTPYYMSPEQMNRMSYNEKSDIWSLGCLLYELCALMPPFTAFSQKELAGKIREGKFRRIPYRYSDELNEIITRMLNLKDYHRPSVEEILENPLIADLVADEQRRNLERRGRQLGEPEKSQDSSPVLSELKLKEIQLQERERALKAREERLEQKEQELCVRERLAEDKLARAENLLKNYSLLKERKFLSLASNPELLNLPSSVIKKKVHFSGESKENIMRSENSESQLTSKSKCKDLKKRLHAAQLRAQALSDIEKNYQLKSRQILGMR

Sample 1
SMILES: COc1ccc(-c2c(Nc3ccccn3)[nH]c3c(C4=CCCCC4)c(-c4ccccc4)nn3c2=O)cc1
Technique: LC-MS/MS
Species: human
Medium: plasma
Route: oral
Endpoint: AUC extrapolated fraction, observed
dose = 400 mg once daily; result = 18% and 39.9% and 48.2% and 47.6%
dose = 100 mg once daily; result = 56.2% and 98.5% and 92.9% and 33.7%
dose = 50 mg once daily; result = 68.5%

Sample 2
Cell line: HaCaT
Concentration: 100 µM
Time: 36 h
Endpoint: viability
SMILES = NC(=O)c1cnccn1; result = 99%
SMILES = CCCCCCCCOc1ccccc1C(=O)Nc1ccc(C(=O)OCC[N+](C)(CC)CC)cc1; result = 6.02%
SMILES = CCCC(=O)O[C@]1(C(=O)CO)CC[C@H]2[C@@H]3CCC4=CC(=O)CC[C@]4(C)[C@H]3[C@@H](O)C[C@@]21C; result = 74.5%
SMILES = OC[C@@H](O)[C@@H](O)[C@H](O)[C@@H](O)CO; result = 99%
SMILES = NC(=O)N1c2ccccc2CCc2ccccc21; result = 91.5%
SMILES = CCC(=O)O[C@@H](O[P@](=O)(CCCCc1ccccc1)CC(=O)N1C[C@H](C2CCCCC2)C[C@H]1C(=O)O)C(C)C; result = 97.3%
SMILES = N[C@@H](CCC(=O)N[C@@H](CS)C(=O)NCC(=O)O)C(=O)O; result = 83.9%
SMILES = OCc1ccccc1; result = 73.5%

Sample 3
SMILES: CC(=O)N1CCC(c2ccc(C(=O)NC3=NCCN3)cc2C(F)(F)F)CC1
Observed: cell-free assay
Technique: competition with immobilised ligand
Concentration: 1 µM
Endpoint: remaining binding
target = SRPK1 (Homo sapiens, UniProt Q96SB4); result = 100%
target = PLK1 (Homo sapiens, UniProt P53350); result = 88%
target = CSNK1A1L (Homo sapiens, UniProt Q8N752); result = 100%
target = PIK3CA (Homo sapiens, UniProt P42336, E542K); result = 100%
target = MAP2K1 (Homo sapiens, UniProt Q02750); result = 100%
target = CSNK2A2 (Homo sapiens, UniProt P19784); result = 100%
target = TTK (Homo sapiens, UniProt P33981); result = 100%
target = GSK3B (Homo sapiens, UniProt P49841); result = 88%
target = DYRK1B (Homo sapiens, UniProt Q9Y463); result = 37%
target = EGFR (Homo sapiens, UniProt P00533, T790M); result = 100%
target = NEK3 (Homo sapiens, UniProt P51956); result = 63%
target = MYLK2 (Homo sapiens, UniProt Q9H1R3); result = 100%
target = PRKD3 (Homo sapiens, UniProt O94806); result = 100%
target = Ribosomal protein S6 kinase alpha-6, C-terminal kinase domain (RPS6KA6, Homo sapiens, UniProt Q9UK32); result = 98%
target = Tyrosine-protein kinase ABL1, non-phosphorylated (ABL1, Homo sapiens, UniProt P00519, F317L); result = 87%

Sample 4
SMILES: COc1ccc(Cl)cc1NC(=O)Nc1cc(C)nc2ccccc12
Observed: enzyme activity
Mode: inhibitor
Concentration: 0.5 µM
Baseline: control
Endpoint: remaining activity
target = NEK2 (Homo sapiens, UniProt P51955); result = 106%
target = STK10 (Homo sapiens, UniProt O94804); result = 90.9%
target = IKBKE (Homo sapiens, UniProt Q14164); result = 107%
target = CAMK2D (Homo sapiens, UniProt Q13557); result = 98.2%
target = DAPK1 (Homo sapiens, UniProt P53355); result = 93.3%
target = GRK3 (Homo sapiens, UniProt P35626); result = 103%
target = TGFBR2 (Homo sapiens, UniProt P37173); result = 111%
target = OXSR1 (Homo sapiens, UniProt O95747); result = 101%

Repeated from above (sample 4):
target = DAPK1 (Homo sapiens, UniProt P53355); result = 93.3%
target = NEK2 (Homo sapiens, UniProt P51955); result = 106%
target = STK10 (Homo sapiens, UniProt O94804); result = 90.9%
target = TGFBR2 (Homo sapiens, UniProt P37173); result = 111%
target = IKBKE (Homo sapiens, UniProt Q14164); result = 107%
